Results from different studies.
Each line is one published result; not all experiments were run side by side.

SMILES | organism | assay | system | setting | MIC
CC(=O)N[C@@H](CC(C)C)C(=O)N[C@H]1CSSC[C@@H](C(=O)N2CCC[C@H]2C(N)=O)NC(=O)[C@H]([C@@H](C)O)NC(=O)[C@H](C(C)C)NC(=O)[C@H]([C@@H](C)O)NC(=O)[C@H](CCCCN)NC(=O)[C@H](CC(C)C)NC(=O)[C@H](Cc2ccccc2)NC(=O)[C@H](Cc2ccc(O)cc2)NC(=O)[C@H](CC(C)C)NC(=O)[C@H](CCCCN)NC(=O)[C@H](Cc2ccccc2)NC(=O)[C@H](CCCNC(=N)N)NC(=O)[C@H](CCC(N)=O)NC(=O)[C@H](CC(C)C)NC(=O)[C@H](CCCCN)NC(=O)[C@@H]2CCCN2C(=O)[C@H](CCCCN)NC(=O)[C@H](C(C)C)NC(=O)[C@H](CC(N)=O)NC(=O)[C@H](Cc2ccc(O)cc2)NC(=O)[C@H]([C@@H](C)O)NC1=O | Shigella flexneri | broth dilution | CGMCC strain | 24 h | 2.5 to 5 µM
[O-][N+]1=C(c2ccc(Cl)cc2)C2=NCCCCN2c2ccccc21 | Bacteroides spp. and Parabacteroides distasonis |  |  |  | 0.5 to 2 µg/mL
CC1(C)C(NC(=O)C(=NOC2(C(=O)O)CC2)c2csc(N)n2)C(=O)N1OS(=O)(=O)O (stereo not shown) | Klebsiella pneumoniae |  | ATCC BAA-2146, ESBL and NDM-positive | compound alone | 2 µg/mL
C#CCOc1ccc(CN[C@@]2(C)C[C@H](O[C@H]3[C@H](Oc4c5cc6cc4Oc4ccc(cc4Cl)[C@@H](O)[C@@H](NC(=O)[C@@H](CC(C)C)NC)C(=O)N[C@@H](CC(N)=O)C(=O)N[C@H]6C(=O)N[C@H]4C(=O)N[C@H](C(=O)N[C@H](C(=O)N[C@@H](CCCNC(=N)N)C(N)=O)c6cc(O)cc(O)c6-c6cc4ccc6O)[C@H](O)c4ccc(c(Cl)c4)O5)O[C@H](CO)[C@@H](O)[C@@H]3O)O[C@@H](C)[C@H]2O)cc1OC | Enterococcus faecalis | broth microdilution | vancomycin-resistant, tryptic soy broth | 20 to 24 h, 37 °C, 0.002% polysorbate 80 | 32 µg/mL
CC[C@H](C)[C@H](NC(=O)[C@H](CCCCN)NC(=O)[C@H](CCCCN)NC(=O)[C@H](Cc1ccccc1)NC(=O)[C@H](Cc1ccccc1)NC(=O)[C@H](CCCCN)NC(=O)[C@H](CCCCN)NC(=O)[C@H](Cc1ccccc1)NC(=O)[C@H](CCCNC(=N)N)NC(=O)[C@@H](N)CCCCN)C(=O)N[C@@H](CCCCN)C(=O)N[C@@H](CCCCN)C(=O)N[C@@H](CO)C(=O)N[C@H](C(=O)N[C@@H](CCCCN)C(=O)N[C@@H](CCCCN)C(=O)N[C@@H](CCCNC(=N)N)C(=O)N[C@H](C(=O)N[C@@H](CCCCN)C(=O)N[C@@H](CCCCN)C(=O)N[C@@H](CC(C)C)C(=O)N[C@@H](Cc1ccccc1)C(=O)N[C@@H](CCCCN)C(=O)N[C@@H](CCCCN)C(=O)N1CCC[C@H]1C(=O)N[C@@H](CCCNC(=N)N)C(=O)N[C@H](C(=O)N[C@H](C(=O)N1CCC[C@H]1C(=O)N[C@H](C(=O)N[C@@H](CO)C(=O)N[C@H](C(=O)N1CCC[C@H]1C(=O)N[C@@H](Cc1ccccc1)C(=O)O)[C@@H](C)CC)[C@@H](C)CC)[C@@H](C)CC)C(C)C)C(C)C)C(C)C | Pseudomonas aeruginosa | broth microdilution | P3 clinical isolate | 20 h | 4 µg/mL
CC(=O)N[C@@H](CC(C)C)C(=O)N[C@H]1CSSC[C@@H](C(=O)N2CCC[C@H]2C(N)=O)NC(=O)[C@H]([C@@H](C)O)NC(=O)[C@H](C(C)C)NC(=O)[C@H]([C@@H](C)O)NC(=O)CNC(=O)[C@H](CC(C)C)NC(=O)[C@H](Cc2ccccc2)NC(=O)[C@H](Cc2ccc(O)cc2)NC(=O)[C@H](CC(C)C)NC(=O)[C@H](CCCCN)NC(=O)[C@H](Cc2ccccc2)NC(=O)[C@H](CCCNC(=N)N)NC(=O)[C@H](CCCCN)NC(=O)[C@H](CC(C)C)NC(=O)[C@H](CCCCN)NC(=O)[C@@H]2CCCN2C(=O)[C@H](CCCCN)NC(=O)[C@H](C(C)C)NC(=O)[C@H](CC(N)=O)NC(=O)[C@H](Cc2ccc(O)cc2)NC(=O)[C@H]([C@@H](C)O)NC1=O | Vibrio alginolyticus | broth dilution |  | 24 h | 5 to 10 µM
O=[N+]([O-])c1ccc(C2=[N+]([O-])c3ccccc3N3CCCN=C23)cc1 | Bacteroides fragilis |  |  |  | 0.06 to 0.25 µg/mL
N=C(N)NCCC[C@H](NC(=O)[C@H](CCCNC(=N)N)NC(=O)[C@H](Cc1ccccc1)NC(=O)[C@H](CO)NC(=O)[C@H](Cc1ccccc1)NC(=O)[C@H](Cc1c[nH]c2ccccc12)NC(=O)[C@H](Cc1ccccc1)NC(=O)[C@H](CO)NC(=O)[C@H](Cc1ccccc1)NC(=O)[C@H](CCCNC(=N)N)NC(=O)[C@@H](N)CCCNC(=N)N)C(N)=O | Candida parapsilosis |  | CGMCC 2.399 | 48 h, 37 °C | 2 µM
OB(O)c1cnn(-c2cc(Cl)ncn2)c1 | Klebsiella aerogenes | bacterial growth | AmpC overproducer clinical isolate | without cefotaxime | 1020 µg/mL
CC(C)CCCCCCCCC/C=C/C(=O)N[C@@H](CC(=O)O)C(=O)N[C@H]1CNC(=O)[C@@H]2CCCN2C(=O)[C@H](C(C)C)NC(=O)[C@@H](CN)NC(=O)CNC(=O)[C@H](CC(=O)O)NC(=O)CNC(=O)[C@H](CC(=O)O)NC(=O)[C@H](CC(=O)O)NC(=O)[C@H]2CCCCN2C1=O | Enterococcus | broth microdilution | VRE 155, Mueller-Hinton broth, Mg2+ 10 mg/L | 16 h, with: Ca2+ 1.0 mM | 8 µg/mL
[O-][N+]1=C(c2ccc(Cl)cc2)C2=NCCCN2c2ccccc21 | Bacteroides spp. and Parabacteroides distasonis |  |  |  | 0.5 to 2 µg/mL
CCCCCCCC(=O)NCCCC[C@H](NC(=O)CCCCCCC)C(=O)N[C@@H](CCCCNC(=O)CCCCCCC)C(=O)NCC(=O)NCC(=O)NCC(=O)N[C@@H](CS)C(=O)N[C@@H](CCCNC(=N)N)C(=O)N[C@@H](CCCCN)C(=O)N1CCC[C@H]1C(=O)N[C@@H](CS)C(=O)N[C@@H](CCCNC(=N)N)C(=O)N[C@@H](CCCCN)C(=O)N1CCC[C@H]1C(=O)N[C@@H](CS)C(=O)N[C@@H](CCCNC(=N)N)C(=O)N[C@@H](CCCCN)C(=O)N1CCC[C@H]1C(N)=O | Candida parapsilosis | broth microdilution | CGMCC 2.399, RPMI-1640 | 48 h, 30 °C | 16 µM
C#CCOc1ccc(CN[C@@]2(C)C[C@H](O[C@H]3[C@H](Oc4c5cc6cc4Oc4ccc(cc4Cl)[C@@H](O)[C@@H](NC(=O)[C@@H](CC(C)C)NC)C(=O)N[C@@H](CC(N)=O)C(=O)N[C@H]6C(=O)N[C@H]4C(=O)N[C@H](C(=O)N[C@H](C(=O)NCC(N)=O)c6cc(O)cc(O)c6-c6cc4ccc6O)[C@H](O)c4ccc(c(Cl)c4)O5)O[C@H](CO)[C@@H](O)[C@@H]3O)O[C@@H](C)[C@H]2O)cc1OC | Enterococcus faecalis | broth microdilution | vancomycin-resistant, tryptic soy broth | 20 to 24 h, 37 °C, 0.002% polysorbate 80 | 64 µg/mL
CC(=O)N[C@@H](CC(C)C)C(=O)N[C@H]1CSSC[C@@H](C(=O)N2CCC[C@H]2C(N)=O)NC(=O)[C@H]([C@@H](C)O)NC(=O)[C@H](C(C)C)NC(=O)[C@H]([C@@H](C)O)NC(=O)CNC(=O)[C@H](CC(C)C)NC(=O)[C@H](Cc2ccccc2)NC(=O)[C@H](Cc2ccc(O)cc2)NC(=O)[C@H](CC(C)C)NC(=O)[C@H](CCCCN)NC(=O)[C@H](Cc2ccccc2)NC(=O)[C@H](CCCNC(=N)N)NC(=O)[C@H](CCC(N)=O)NC(=O)[C@H](CC(C)C)NC(=O)[C@H](CCCCN)NC(=O)[C@@H]2CCCN2C(=O)[C@H](CCCCN)NC(=O)[C@H](C(C)C)NC(=O)[C@H](CC(N)=O)NC(=O)[C@H](Cc2ccc(O)cc2)NC(=O)[C@H]([C@@H](C)O)NC1=O | Shigella flexneri | broth dilution | CGMCC strain | 24 h | 2.5 to 5 µM
CC(C)C[C@@H]1NC(=O)[C@H](CCCNC(=N)N)NC(=O)[C@H](CCCNC(=N)N)NC(=O)[C@@H](NC(=O)[C@@H](N)CCC(=O)O)CSSC[C@@H](C(=O)N[C@@H](CCCNC(=N)N)C(=O)NCC(=O)N[C@@H](CCCNC(=N)N)C(N)=O)NC(=O)[C@H](Cc2ccc(O)cc2)NC(=O)[C@H]([C@@H](C)O)NC(=O)[C@H](C(C)C)NC(=O)[C@@H]2CSSC[C@H](NC1=O)C(=O)N[C@@H](Cc1ccc(O)cc1)C(=O)N[C@@H](CCCCN)C(=O)N[C@@H](CCC(N)=O)C(=O)N[C@@H](CCCNC(=N)N)C(=O)N2 | Corynebacterium glutamicum |  | ATCC 13032 | 37 °C | 0.195 µM
[O-][N+]1=C(Cc2ccccc2)C2=NCCCN2c2ccccc21 | Bacteroides fragilis |  |  |  | 0.5 to 4 µg/mL
CCCCCCCC(=O)NCCCC[C@H](NC(=O)CCCCCCC)C(=O)N[C@@H](CCCCNC(=O)CCCCCCC)C(=O)NCC(=O)NCC(=O)NCC(=O)N[C@@H](CS)C(=O)N[C@@H](CCCNC(=N)N)C(=O)N[C@@H](CCCCN)C(=O)N1CCC[C@H]1C(=O)N[C@@H](CS)C(=O)N[C@@H](CCCNC(=N)N)C(=O)N[C@@H](CCCCN)C(=O)N1CCC[C@H]1C(N)=O | Candida parapsilosis | broth microdilution | CGMCC 2.399, RPMI-1640 | 48 h, 30 °C | 16 µM
[O-][N+]1=C(c2ccccc2)C2=NCCN2c2ccccc21 | Bacteroides fragilis |  |  |  | 0.06 to 0.125 µg/mL
CC(C)CCCCCCCCC/C=C/C(=O)N[C@@H](CC(N)=O)C(=O)N[C@H]1CNC(=O)[C@@H]2CCCN2C(=O)[C@H](C(C)C)NC(=O)[C@@H](CN)NC(=O)CNC(=O)[C@H](CC(=O)O)NC(=O)CNC(=O)[C@H](CC(=O)O)NC(=O)[C@H](CC(=O)O)NC(=O)[C@H]2CCCCN2C1=O | Enterococcus | broth microdilution | VRE 155, Mueller-Hinton broth, Mg2+ 10 mg/L | 16 h, with: Ca2+ 1.0 mM | 8 µg/mL
CCCCCCCCCCCCCC(=O)N[C@H]1C(=O)N[C@@H](CN)C(=O)N[C@@H](CO)C(=O)N[C@@H](Cc2ccc(O)cc2)C(=O)O[C@H]1C | Staphylococcus aureus |  | SH1000 | with: menaquinone-4, molar ratio 0.5 | 2 µg/mL
C[N+]1=C2C(c3ccc(Cl)cc3)=[N+]([O-])c3ccccc3N2CCC1 | Bacteroides fragilis |  |  |  | 1 to 8 µg/mL
CC(=O)N[C@@H](CC(C)C)C(=O)N[C@H]1CSSC[C@@H](C(=O)N2CCC[C@H]2C(N)=O)NC(=O)[C@H](CCCCN)NC(=O)[C@H](C(C)C)NC(=O)[C@H](CCCCN)NC(=O)CNC(=O)[C@H](CC(C)C)NC(=O)[C@H](Cc2ccccc2)NC(=O)[C@H](CCCCN)NC(=O)[C@H](CC(C)C)NC(=O)[C@H](CCC(=O)O)NC(=O)[C@H](Cc2ccccc2)NC(=O)[C@H](CCCNC(=N)N)NC(=O)[C@H](CCCCN)NC(=O)[C@H](CC(C)C)NC(=O)[C@H](CC(=O)O)NC(=O)[C@@H]2CCCN2C(=O)[C@H](CCCCN)NC(=O)[C@H](C(C)C)NC(=O)[C@H](CCCCN)NC(=O)[C@H](CCCCN)NC(=O)[C@H](CCCCN)NC1=O | Corynebacterium glutamicum | broth dilution | CGMCC strain | 24 h | < 1.25 µM

For quick reference, copied from above:
SMILES | organism | assay | system | setting | MIC
[O-][N+]1=C(c2ccccc2)C2=NCCN2c2ccccc21 | Bacteroides fragilis |  |  |  | 0.06 to 0.125 µg/mL
CC(=O)N[C@@H](CC(C)C)C(=O)N[C@H]1CSSC[C@@H](C(=O)N2CCC[C@H]2C(N)=O)NC(=O)[C@H]([C@@H](C)O)NC(=O)[C@H](C(C)C)NC(=O)[C@H]([C@@H](C)O)NC(=O)CNC(=O)[C@H](CC(C)C)NC(=O)[C@H](Cc2ccccc2)NC(=O)[C@H](Cc2ccc(O)cc2)NC(=O)[C@H](CC(C)C)NC(=O)[C@H](CCCCN)NC(=O)[C@H](Cc2ccccc2)NC(=O)[C@H](CCCNC(=N)N)NC(=O)[C@H](CCC(N)=O)NC(=O)[C@H](CC(C)C)NC(=O)[C@H](CCCCN)NC(=O)[C@@H]2CCCN2C(=O)[C@H](CCCCN)NC(=O)[C@H](C(C)C)NC(=O)[C@H](CC(N)=O)NC(=O)[C@H](Cc2ccc(O)cc2)NC(=O)[C@H]([C@@H](C)O)NC1=O | Shigella flexneri | broth dilution | CGMCC strain | 24 h | 2.5 to 5 µM
N=C(N)NCCC[C@H](NC(=O)[C@H](CCCNC(=N)N)NC(=O)[C@H](Cc1ccccc1)NC(=O)[C@H](CO)NC(=O)[C@H](Cc1ccccc1)NC(=O)[C@H](Cc1c[nH]c2ccccc12)NC(=O)[C@H](Cc1ccccc1)NC(=O)[C@H](CO)NC(=O)[C@H](Cc1ccccc1)NC(=O)[C@H](CCCNC(=N)N)NC(=O)[C@@H](N)CCCNC(=N)N)C(N)=O | Candida parapsilosis |  | CGMCC 2.399 | 48 h, 37 °C | 2 µM
